Measured values collected from several papers.
Compare with care: the assays were run in different laboratories. Numbers after ± are the reported error.
Sequence of UniProt Q96GW9 (whole entry, looked up): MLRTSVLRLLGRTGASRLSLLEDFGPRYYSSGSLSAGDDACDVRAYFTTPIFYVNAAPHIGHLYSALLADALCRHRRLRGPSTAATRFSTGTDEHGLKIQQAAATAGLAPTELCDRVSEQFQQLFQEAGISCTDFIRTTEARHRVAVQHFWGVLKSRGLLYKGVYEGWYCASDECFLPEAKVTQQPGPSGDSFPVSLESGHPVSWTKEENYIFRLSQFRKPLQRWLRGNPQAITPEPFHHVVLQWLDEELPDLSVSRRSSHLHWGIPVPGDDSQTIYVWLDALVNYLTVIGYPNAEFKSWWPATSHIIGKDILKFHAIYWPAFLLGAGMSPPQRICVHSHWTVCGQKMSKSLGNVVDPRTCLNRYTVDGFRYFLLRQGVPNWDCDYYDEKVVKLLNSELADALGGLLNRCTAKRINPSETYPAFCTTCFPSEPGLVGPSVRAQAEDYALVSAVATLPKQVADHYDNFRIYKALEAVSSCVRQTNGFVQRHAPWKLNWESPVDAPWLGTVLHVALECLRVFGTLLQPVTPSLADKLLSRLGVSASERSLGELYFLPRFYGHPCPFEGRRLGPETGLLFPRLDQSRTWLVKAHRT
Sequence of UniProt P35372 (whole entry, looked up): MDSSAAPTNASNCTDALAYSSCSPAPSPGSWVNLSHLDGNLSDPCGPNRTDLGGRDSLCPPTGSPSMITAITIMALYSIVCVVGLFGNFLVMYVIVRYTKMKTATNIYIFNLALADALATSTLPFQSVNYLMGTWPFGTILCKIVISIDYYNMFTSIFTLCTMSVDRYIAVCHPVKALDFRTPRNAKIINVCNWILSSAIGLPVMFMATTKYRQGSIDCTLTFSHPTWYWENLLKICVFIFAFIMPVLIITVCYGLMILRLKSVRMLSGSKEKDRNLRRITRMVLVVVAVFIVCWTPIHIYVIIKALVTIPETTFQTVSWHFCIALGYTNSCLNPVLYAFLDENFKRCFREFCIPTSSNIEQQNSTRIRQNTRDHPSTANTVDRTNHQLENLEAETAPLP
Sequence of UniProt Q9BRA2 (whole entry, looked up): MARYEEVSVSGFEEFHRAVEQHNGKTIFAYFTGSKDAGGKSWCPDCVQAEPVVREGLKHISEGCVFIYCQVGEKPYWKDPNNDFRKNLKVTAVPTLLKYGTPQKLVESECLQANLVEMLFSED
Sequence of UniProt Q9NP55 (whole entry, looked up): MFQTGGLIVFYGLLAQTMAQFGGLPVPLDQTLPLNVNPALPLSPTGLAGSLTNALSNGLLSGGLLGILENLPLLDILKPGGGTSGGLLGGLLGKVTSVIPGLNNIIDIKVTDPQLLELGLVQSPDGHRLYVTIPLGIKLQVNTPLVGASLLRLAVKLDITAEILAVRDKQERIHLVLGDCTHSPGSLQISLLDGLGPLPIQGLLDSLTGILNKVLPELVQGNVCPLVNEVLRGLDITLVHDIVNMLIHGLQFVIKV
Sequence of UniProt O00311 (whole entry, looked up): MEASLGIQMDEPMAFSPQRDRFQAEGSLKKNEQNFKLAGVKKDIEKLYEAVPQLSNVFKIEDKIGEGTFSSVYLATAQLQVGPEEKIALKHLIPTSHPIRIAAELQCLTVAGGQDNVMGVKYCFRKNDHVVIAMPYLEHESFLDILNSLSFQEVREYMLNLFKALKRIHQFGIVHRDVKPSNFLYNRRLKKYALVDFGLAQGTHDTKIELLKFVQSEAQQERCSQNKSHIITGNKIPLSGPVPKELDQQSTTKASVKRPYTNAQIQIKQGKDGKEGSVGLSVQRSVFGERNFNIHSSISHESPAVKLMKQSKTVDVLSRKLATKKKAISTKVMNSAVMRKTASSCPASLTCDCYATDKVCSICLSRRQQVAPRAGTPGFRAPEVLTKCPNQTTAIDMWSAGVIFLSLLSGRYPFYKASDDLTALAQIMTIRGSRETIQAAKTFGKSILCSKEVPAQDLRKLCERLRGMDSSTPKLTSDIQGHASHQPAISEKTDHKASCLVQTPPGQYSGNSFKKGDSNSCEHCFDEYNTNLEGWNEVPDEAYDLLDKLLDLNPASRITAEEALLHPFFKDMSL
Sequence of UniProt Q9EP89 (whole entry, looked up): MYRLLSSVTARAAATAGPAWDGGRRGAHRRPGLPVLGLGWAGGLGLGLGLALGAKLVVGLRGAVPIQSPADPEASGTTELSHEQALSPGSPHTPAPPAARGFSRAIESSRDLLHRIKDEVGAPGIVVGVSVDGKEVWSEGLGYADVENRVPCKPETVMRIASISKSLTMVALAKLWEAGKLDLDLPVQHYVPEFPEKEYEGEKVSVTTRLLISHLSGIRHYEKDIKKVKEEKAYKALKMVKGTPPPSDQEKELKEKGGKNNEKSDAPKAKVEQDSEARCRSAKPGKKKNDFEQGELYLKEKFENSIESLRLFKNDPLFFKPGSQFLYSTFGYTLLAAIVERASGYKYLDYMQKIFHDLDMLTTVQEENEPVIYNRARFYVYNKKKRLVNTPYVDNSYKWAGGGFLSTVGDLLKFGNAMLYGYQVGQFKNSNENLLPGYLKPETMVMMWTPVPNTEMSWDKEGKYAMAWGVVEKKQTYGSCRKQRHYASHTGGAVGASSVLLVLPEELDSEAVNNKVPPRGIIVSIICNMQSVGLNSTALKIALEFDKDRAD
Sequence of UniProt P15066 (whole entry, unmodified, looked up): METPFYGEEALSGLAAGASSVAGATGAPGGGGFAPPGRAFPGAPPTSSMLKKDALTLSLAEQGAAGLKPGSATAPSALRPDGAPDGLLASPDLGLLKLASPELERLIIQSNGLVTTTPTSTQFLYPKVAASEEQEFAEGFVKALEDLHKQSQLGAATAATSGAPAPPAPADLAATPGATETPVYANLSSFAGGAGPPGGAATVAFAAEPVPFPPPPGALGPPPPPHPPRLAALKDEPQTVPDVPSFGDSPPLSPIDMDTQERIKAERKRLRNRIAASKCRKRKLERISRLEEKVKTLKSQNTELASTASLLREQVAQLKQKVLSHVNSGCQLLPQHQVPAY
Sequence of UniProt Q13639 (whole entry, looked up): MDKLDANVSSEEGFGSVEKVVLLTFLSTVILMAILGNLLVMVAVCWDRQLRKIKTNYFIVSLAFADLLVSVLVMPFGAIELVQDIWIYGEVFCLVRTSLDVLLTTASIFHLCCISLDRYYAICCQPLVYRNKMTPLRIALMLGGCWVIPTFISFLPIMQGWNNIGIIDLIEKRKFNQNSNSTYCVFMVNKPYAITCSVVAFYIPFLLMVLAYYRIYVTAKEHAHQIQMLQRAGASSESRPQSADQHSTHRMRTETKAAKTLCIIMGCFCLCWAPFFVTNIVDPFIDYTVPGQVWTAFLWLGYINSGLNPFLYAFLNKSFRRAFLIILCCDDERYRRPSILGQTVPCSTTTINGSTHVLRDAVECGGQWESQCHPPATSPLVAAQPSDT
Sequence of UniProt P13346 (whole entry, unmodified, looked up): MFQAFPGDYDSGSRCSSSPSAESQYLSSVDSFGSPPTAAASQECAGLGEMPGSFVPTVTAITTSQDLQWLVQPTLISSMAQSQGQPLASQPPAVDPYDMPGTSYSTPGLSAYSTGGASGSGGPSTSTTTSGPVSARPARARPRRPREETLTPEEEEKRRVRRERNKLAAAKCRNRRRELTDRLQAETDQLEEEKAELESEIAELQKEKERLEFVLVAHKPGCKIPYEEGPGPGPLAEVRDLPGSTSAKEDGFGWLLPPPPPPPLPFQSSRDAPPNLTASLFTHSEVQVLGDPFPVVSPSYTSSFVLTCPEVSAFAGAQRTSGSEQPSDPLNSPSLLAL
Sequence of UniProt Q8IW41 (whole entry, looked up): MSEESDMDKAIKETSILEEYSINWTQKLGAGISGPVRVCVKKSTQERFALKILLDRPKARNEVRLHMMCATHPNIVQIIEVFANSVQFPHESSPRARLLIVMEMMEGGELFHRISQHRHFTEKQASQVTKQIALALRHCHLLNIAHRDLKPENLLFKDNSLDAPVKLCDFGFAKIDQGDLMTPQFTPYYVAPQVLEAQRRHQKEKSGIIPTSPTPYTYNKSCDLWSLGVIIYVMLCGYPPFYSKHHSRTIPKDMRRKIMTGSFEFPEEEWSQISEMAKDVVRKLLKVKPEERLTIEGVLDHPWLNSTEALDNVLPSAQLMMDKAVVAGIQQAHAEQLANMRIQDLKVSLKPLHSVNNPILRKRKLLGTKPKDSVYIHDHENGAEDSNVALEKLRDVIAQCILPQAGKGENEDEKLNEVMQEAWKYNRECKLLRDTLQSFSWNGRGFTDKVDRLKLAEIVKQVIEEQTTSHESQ
Sequence of UniProt P10619 (whole entry, looked up): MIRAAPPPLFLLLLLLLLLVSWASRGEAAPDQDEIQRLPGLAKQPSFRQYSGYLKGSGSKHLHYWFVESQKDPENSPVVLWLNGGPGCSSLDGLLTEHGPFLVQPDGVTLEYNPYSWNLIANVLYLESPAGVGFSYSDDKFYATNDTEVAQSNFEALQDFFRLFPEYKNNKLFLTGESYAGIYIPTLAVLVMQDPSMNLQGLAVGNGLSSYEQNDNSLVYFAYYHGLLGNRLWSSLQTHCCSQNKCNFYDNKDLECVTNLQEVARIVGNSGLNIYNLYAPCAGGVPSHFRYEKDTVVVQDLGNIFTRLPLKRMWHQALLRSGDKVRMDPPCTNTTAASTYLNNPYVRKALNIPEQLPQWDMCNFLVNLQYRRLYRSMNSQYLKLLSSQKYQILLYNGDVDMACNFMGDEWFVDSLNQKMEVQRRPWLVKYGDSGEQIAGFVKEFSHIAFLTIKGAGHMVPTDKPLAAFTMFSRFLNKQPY

SMILES | target | assay | system | conditions | scale | endpoint | result
CN(C)CCCSC(=S)N1CCN(C(=O)/C=C/c2coc3ccccc3c2=O)CC1 | Nucleoprotein (N, Tomato spotted wilt virus, UniProt P25999, Y184A) | binding, microscale thermophoresis |  | 15.62 µM | dose series | MST response | 839 a.u.
CCOC(=O)[C@@H]1Cc2c(cc([N+](=O)[O-])cc2[N+](=O)[O-])[C@H](O)[C@]12C(=O)Nc1ccc(Br)cc12 | MAP/microtubule affinity-regulating kinase 3 (MARK3, Homo sapiens, UniProt P27448) | binding, competition with immobilised ligand |  | 0.1 µM |  | remaining binding | 16%
COc1ccccc1-c1n[nH]c2nc(N[C@H]3CC[C@H](NS(=O)(=O)CC(C)C)CC3)ncc12 | BPI fold-containing family A member 1 (BPIFA1, Homo sapiens, UniProt Q9NP55) | competitor, bead pull-down competition, item: SPLUNC1 | Leishmania donovani extract | 10 µM | baseline: vehicle | relative abundance | 27.1
CC(C)CC(O)(CC(C)C)c1cn(C(=O)N2CCCC2)nn1 | Serine beta-lactamase-like protein LACTB, mitochondrial (Lactb, Mus musculus, UniProt Q9EP89) |  | mouse, brain | concentration not given | baseline: vehicle over compound | activity-based probe labelling ratio | 2.62
O=C1NC(=O)c2c1c1cc(F)c[n+]3c1c1c2c2cc(O)ccc2[n]1[Ru-4]312([N]=C=S)[S+]3CC[S+]1CC[S+]2CC3 (stereo not shown) | MAP kinase-activated protein kinase 5 (MAPKAPK5, Homo sapiens, UniProt Q8IW41) | enzyme activity |  | 100 nM, human enzyme, together with: 10 µM ATP | baseline: untreated | remaining activity | 66%
C#CCOC1CCN(c2ccc(C=NNC(=O)CCl)cc2)CC1 | Thioredoxin domain-containing protein 17 (Homo sapiens, UniProt Q9BRA2) | cysteine labelling, gel-based live-cell labelling | HEK-293T | strong ligand-dependent labelling |  | labelling concentration | 0.1 to 0.5 µM
CC(C)OC(=O)[C@H](C)NP(=S)(Oc1ccccc1)c1ccccc1 (stereo partly shown) | Lysosomal protective protein (CTSA, Homo sapiens, UniProt P10619) | substrate |  | 5 µM, pH 7.4, 37 °C |  | DNS-NH2 formation rate constant | 0.293 h⁻¹
C[C@@H](Cc1ccsc1)NC(=O)NC[C@H](Cc1ccc(O)cc1)N(C)C | Mu-type opioid receptor, with Gi2 (OPRM1, Homo sapiens, UniProt P35372) | receptor activation, agonist |  |  |  | Emax | 73 ± 13%
CS(C)(=O)=Nc1ccc(-c2ccc(-c3nc4cc(O[C@@H]5CO[C@H]6[C@@H]5OC[C@H]6O)[nH]c4cc3F)cc2)cc1 | 5-hydroxytryptamine receptor 4, isoform 5-HT4e (HTR4, Homo sapiens, UniProt Q13639) | agonist response, agonist |  | 10 µM | baseline: control agonist | activity | -9.7%
O=C(CCl)c1ccc(F)cc1 | Fosb/Jund, ΔFosB bZIP domain (Mus musculus, UniProt P13346+P15066) | intact mass LC-MS, item: JUND adduct, HCl lost |  | concentration not given | baseline: total JUND species | relative abundance | 32.6%
CC(C)[C@H]1NC(=O)C[C@H]2/C=C/CCSSC[C@@H](NC1=O)C(=O)N[C@H](Cc1cccc3ccccc13)C(=O)NCC(=O)O2 | Cell division cycle 7-related protein kinase, with DBF4 (CDC7, Homo sapiens, UniProt O00311) |  |  | 10 µM |  | inhibition | -0.6%
CN(C)[C@H]1C[C@@]23CC[C@@]4(O2)C(=CC[C@]2(C)[C@@H](c5ccc6ccncc6c5)CC[C@H]24)C=C3[C@@H](O)[C@@H]1O | Interferon-induced, double-stranded RNA-activated protein kinase (EIF2AK2, Homo sapiens, UniProt P19525) | ATP probe labelling, inhibitor, KiNativ profiling |  | 1 µM |  | inhibition | 2.7%
Clc1cc(Cl)cc(CNCCCNc2nc3ccccc3[nH]2)c1 | Methionine--tRNA ligase, mitochondrial (MARS2, Homo sapiens, UniProt Q96GW9) | enzyme activity |  |  | baseline: human IC50 over T. brucei IC50 | selectivity ratio | > 15.7

A few entries again:
SMILES | target | assay | system | conditions | scale | endpoint | result
CC(C)CC(O)(CC(C)C)c1cn(C(=O)N2CCCC2)nn1 | Serine beta-lactamase-like protein LACTB, mitochondrial (Lactb, Mus musculus, UniProt Q9EP89) |  | mouse, brain | concentration not given | baseline: vehicle over compound | activity-based probe labelling ratio | 2.62
CN(C)CCCSC(=S)N1CCN(C(=O)/C=C/c2coc3ccccc3c2=O)CC1 | Nucleoprotein (N, Tomato spotted wilt virus, UniProt P25999, Y184A) | binding, microscale thermophoresis |  | 15.62 µM | dose series | MST response | 839 a.u.
